Published values pooled from the literature.
Each line is one published result; not all experiments were run side by side.
Target: Dual specificity protein kinase CLK4 (CLK4, Homo sapiens, UniProt Q9HAZ1)

NC(=O)[C@@H](O)C[C@H]1CCc2sc3ncnc(O[C@H]4CC[C@H](N5CCOCC5)CC4)c3c21
inhibition (enzyme activity, inhibitor; 10 µM): 84%

C=CC(=O)N1CCc2ccc(-n3c(=O)ccc4cnc5ccc(-c6cnn(C)c6)cc5c43)cc21
remaining binding (KINOMEscan; 1 µM; reference: DMSO control): 95%

CN1CC[C@@H](COc2cnc(C#N)cc2-c2ccn3nc(NC(=O)C4CC4)cc3c2)C1
inhibition (enzyme activity, inhibitor; 1 µM): -5%

COc1cc(Nc2nc(C)cc(-c3cnn4nc(OC)ccc34)n2)cc(C(F)(F)F)c1
remaining binding (binding, competition with immobilised ligand; 1 µM): 98%

C=CC(=O)N1Cc2nc(-c3cc(-c4cc(Cl)cnc4Cl)c(F)cc3F)n(-c3ccncn3)c2C1
inhibition (cell-free assay, inhibitor; 1 µM): 2.1%

Cc1cccc(O[C@H]2CCC[C@@H](C(C)CNCc3ccncc3)C2)c1 (relative stereo)
inhibition (enzyme activity, inhibitor; 1 µM): 2%

Nc1ncc2c(n1)-c1c([nH]c3ccc(C4=CCOCC4)cc13)CCC2
remaining binding (binding, competition with immobilised ligand; 1 µM): 84%

C=CC(=O)Nc1cccc(-c2cnc3[nH]cc(C(=O)NC(C)(C)C)c3n2)c1
inhibition (kinase activity; 0.1 µM): 81%

COc1c(Cl)cccc1Nc1c(-c2ccncc2C#C[C@@]2(C)CCCN2C(=O)/C=C/CN(C)C)[nH]c2c1C(=O)NCC2
remaining binding (binding, competition with immobilised ligand; 3 µM): 93%

O=C(Cc1ccc(OCc2ccccc2)cc1)NC1(C(=O)O)CCN(C(=O)c2ccc(-c3cccc(Cl)c3)cc2)CC1
activity vs control (enzyme activity, inhibitor; 10 µM): 89%

Nc1ncc(-c2cc(-c3cnn(CC(F)(F)F)c3)ncc2F)nc1C(=O)NC1CNCC(F)C1 (stereo not drawn)
remaining activity (enzyme activity; 1 µM; reference: DMSO control): 64%

CCN1CCN(Cc2ccc(C(=O)Nc3ccc(C)c(NCc4cnc5[nH]ccc5c4OC)c3)cc2C(F)(F)F)CC1
remaining binding (binding, competition with immobilised ligand; 1 µM): 86%

For quick reference, copied from above:
CN1CC[C@@H](COc2cnc(C#N)cc2-c2ccn3nc(NC(=O)C4CC4)cc3c2)C1
inhibition (enzyme activity, inhibitor; 1 µM): -5%
